Assay results pooled from the literature.
Compare with care: the assays were run in different laboratories. Numbers after ± are the reported error.
B1: acetylcholinesterase; chain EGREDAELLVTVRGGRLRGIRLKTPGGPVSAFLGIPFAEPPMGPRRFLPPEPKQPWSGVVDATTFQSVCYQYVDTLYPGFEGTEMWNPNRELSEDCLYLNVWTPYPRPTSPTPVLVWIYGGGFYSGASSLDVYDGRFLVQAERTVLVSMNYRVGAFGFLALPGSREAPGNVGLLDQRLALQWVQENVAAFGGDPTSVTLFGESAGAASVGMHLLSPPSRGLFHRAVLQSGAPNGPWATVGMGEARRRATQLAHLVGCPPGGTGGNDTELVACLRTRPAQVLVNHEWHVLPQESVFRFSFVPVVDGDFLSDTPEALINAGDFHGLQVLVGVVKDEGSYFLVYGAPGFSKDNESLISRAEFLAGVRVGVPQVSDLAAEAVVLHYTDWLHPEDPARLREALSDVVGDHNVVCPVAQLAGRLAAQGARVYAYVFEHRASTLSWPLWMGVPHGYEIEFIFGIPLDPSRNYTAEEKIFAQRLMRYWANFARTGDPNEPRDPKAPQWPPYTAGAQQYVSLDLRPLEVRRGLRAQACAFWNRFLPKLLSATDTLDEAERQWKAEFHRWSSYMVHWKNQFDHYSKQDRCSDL

Under “acylation rate constant k2/Ks”, NC(=O)c1cc[n+](CC2=C(C(=O)O)N3C(=O)[C@@H](NC(=O)[C@@H](c4ccccc4)S(=O)(=O)[O-])[C@H]3SC2)cc1 is recorded as 0.8 ± 0.1 M⁻¹ s⁻¹ (Neisseria gonorrhoeae PBP2 H041; 1 h, pH 8.0, room temperature, with: Bocillin-FL competitor).
With Clc1ccccc1C(c1ccccc1)(c1ccccc1)n1cccn1 the BK current was 95% (mouse BK channel; whole-cell patch clamp; mouse parotid acinar cells; 1 µM, +50 mV, with: DCEBIO 10 µM; baseline: control).
For CNC[C@H](N)C(=O)O, the Km was 1400 ± 320 µM (ASCT2; anion current, substrate; HEK293 transfected; pH 7.40, 0 mV).
Under “acylation rate constant k2/Ks”, CC(C)(O/N=C(\C(=O)N[C@@H]1C(=O)N2C(C(=O)[O-])=C(C[n+]3ccccc3)CS[C@H]12)c1csc(N)n1)C(=O)O is recorded as 780 ± 150 M⁻¹ s⁻¹ (Neisseria gonorrhoeae PBP2 H041; 1 h, pH 8.0, room temperature, with: Bocillin-FL competitor).
Under “dissociation rate constant”, CC[C@H](C)[C@H](NC(=O)[C@H](CCCNC(=N)N)NC(=O)[C@H](C)NC(=O)[C@H](Cc1c[nH]c2ccccc12)NC(=O)[C@H](CO)NC(=O)CNC(=O)[C@H](CC(C)C)NC(=O)[C@H](Cc1ccccc1)NC(=O)[C@H](CCCNC(=N)N)NC(=O)[C@H](CCCNC(=N)N)NC(=O)[C@H](Cc1ccccc1)NC(=O)CNC(C)=O)C(=O)N[C@@H](Cc1ccc(O)cc1)C(=O)N[C@@H](CCCNC(=N)N)C(=O)N[C@@H](C)C(=O)N[C@@H](Cc1ccccc1)C(=O)N[C@H](C(=O)NCC(N)=O)C(C)C is recorded as 0.003 s⁻¹ (LPS; surface plasmon resonance; Escherichia coli, 026:B6; 25 °C).
O=C/C=C/c1ccccc1 — result for “maximal peptide depletion”: -124% (cysteine peptide Ac-RFAACAA-COOH; DPRA RapidFire-MS/MS; 24 h, pH 7.5, with: 5.0 µM cysteine peptide).
C=CC1=C(C(=O)O)N2C(=O)[C@@H](NC(=O)/C(=N\OCC(=O)O)c3csc(N)n3)[C@H]2SC1 — result for “acylation rate constant k2/Ks”: 720 ± 60 M⁻¹ s⁻¹ (Neisseria gonorrhoeae PBP2 H041; 1 h, pH 8.0, room temperature, with: Bocillin-FL competitor).
The β-structure formation of O=C(O[C@@H]1Cc2c(O)cc(O)cc2O[C@@H]1c1cc(O)c(O)c(O)c1)c1cc(O)c(O)c(O)c1 is reported as 38 ± 11% (alpha-synuclein; circular dichroism; 2 molar equivalents, 4 h, pH 6.6, 37 °C, with: HFIP 2 vol-%; baseline: uninhibited control).
For CN[C@H](CC(C)C)C(=O)N[C@H]1C(=O)N[C@@H](CC(N)=O)C(=O)N[C@H]2C(=O)N[C@H]3C(=O)N[C@H](C(=O)N[C@H](C(=O)O)c4cc(O)cc(O)c4-c4cc3ccc4O)[C@H](O)c3ccc(c(Cl)c3)Oc3cc2cc(c3O[C@@H]2O[C@H](CO)[C@@H](O)[C@H](O)[C@H]2O[C@H]2C[C@](C)(N)[C@H](O)[C@H](C)O2)Oc2ccc(cc2Cl)[C@H]1O, the detection limit was 10 nM (D-Ala peptide; cantilever array; phosphate buffer; pH 7.4, 25 °C).
CCO/N=C(\C(=O)N[C@@H]1C(=O)N2C(C(=O)[O-])=C(Sc3nc(-c4cc[n+](C)cc4)cs3)CS[C@H]12)c1nsc(N)n1 — result for “acylation rate constant k2/Ks”: 10900 ± 1700 M⁻¹ s⁻¹ (Neisseria gonorrhoeae PBP2 H041; 1 h, pH 8.0, room temperature, with: Bocillin-FL competitor).
`B1 (acetylcholinesterase)` — result for complex formation: “binds” (amyloid oligomers; ELISA, A11 capture; A549 conditioned medium; baseline: mouse IgG).
COCC1=C(C(=O)O)N2C(=O)[C@@H](NC(=O)/C(=N\OC)c3csc(N)n3)[C@H]2SC1 — result for “acylation rate constant k2/Ks”: 590 ± 90 M⁻¹ s⁻¹ (Neisseria gonorrhoeae PBP2 H041; 1 h, pH 8.0, room temperature, with: Bocillin-FL competitor).
Oc1ccc(Cl)cc1-c1cc(Cl)c(Cl)c(Cl)c1Cl gave an inhibition of 91% (aequorin, Aequorea victoria; bioluminescence, inhibitor; 1.0×100 µM, with: coelenterazine; baseline: no inhibitor).
Under “acylation rate constant k2/Ks”, CO/N=C(\C(=O)N[C@@H]1C(=O)N2C(C(=O)O)=C(CSc3nc(=O)c(=O)[nH]n3C)CS[C@H]12)c1csc(N)n1 is recorded as 1710 ± 320 M⁻¹ s⁻¹ (Neisseria gonorrhoeae PBP2 H041; 1 h, pH 8.0, room temperature, with: Bocillin-FL competitor).
For O=C(NCNC(=O)NC1C(=O)NC(=O)N1CO)NC1C(=O)NC(=O)N1CO (centres unmarked), peptide depletion read “inactive” (cysteine peptide Ac-RFAACAA-COOH; DPRA RapidFire-MS/MS; 24 h, pH 7.5, with: 5.0 µM cysteine peptide).
For O=C1c2cc(OCc3ccccc3)nn2CCN1c1ccc(F)cc1, the EC50 was over 10 µM (mGlu1, 2, 4, 6, 7, 8 receptors; selectivity screen).
Cc1ccccc1NC(=O)Nc1ccc(CC(=O)N[C@@H](CCCCNC(=O)/C=C/c2cccnc2)C(=O)N[C@@H](CCCC(=O)O)C(=O)NC2(C(=O)N[C@@H](CCCCNC(=O)CCOCCOCCOCCOCCNC(=O)CN3CCCN4CCN(CCCN(CP(=O)(O)O)CC4)CC3)C(N)=O)CCCCC2)cc1 [copper-64 labelled] has an internalized tracer of 9.2 ± 1.4 fmol/mg (VLA-4; B16-F10; 0.44 MBq per well, 15 min, 37 °C, corrected for blocked uptake).
The recovery yield of `FWWAAFFKG` is reported as 44.8% (adeno-associated virus 2; capsid binding, bind-and-elute chromatography; peptide; peptide ligand resin, MgCl2 elution).
CCC1=C[C@@H]2CN3CCc4c([nH]c5ccccc45)[C@@](C(=O)OC)(C2)[C@@H]13 gave a maximal potentiation of 264 ± 28% (GABA-A receptor α1β2(M286C)γ2S; Xenopus oocytes; 100 µM, with: GABA EC5; baseline: GABA EC5 current).
For CC(C)[C@@H]1NC(=O)c2coc(n2)-c2coc(n2)-c2coc(n2)C/C=C/c2coc(n2)-c2coc(n2)-c2coc1n2, “melting temperature shift” read 0 °C (salmon testes duplex DNA; UV melting; 15 µM, pH 7.5, with: 50 mM K+; baseline: DNA without compound).
For CC[C@H](C)[C@H](NC(=O)[C@@H](CCCNC(=N)N)NC(=O)[C@H](CCCNC(=N)N)NC(=O)[C@@H]1CCCN1C(=O)[C@@H]1CCCN1C(=O)[C@H](CCCNC(=N)N)NC(=O)[C@@H]1CCCN1C(=O)[C@H](CCCNC(=N)N)NC(=O)[C@@H]1CCCN1C(=O)[C@H](CC(C)C)NC(=O)[C@H](Cc1ccc(O)cc1)NC(=O)[C@@H]1CCCN1C(=O)[C@@H]1CCCN1C(=O)[C@H](CCCCN)NC(=O)[C@H](CC(=O)O)NC(=O)[C@@H](N)C(C)C)C(=O)N[C@@H](Cc1ccc(O)cc1)C(=O)N[C@@H](CC(N)=O)C(=O)N[C@H](CCCNC(=N)N)C(N)=O, the Kd was 0.036 ± 0.014 µM (Escherichia coli BW25113 70S ribosome; fluorescence polarization; 90 min).
`(−)-discorhabdin H` gave an effective concentration of 0.1 µM (HIF-1α; HRE reporter gene, inhibitor; LNCaP; 18 h, 1% O2, nontoxic concentration).
C=C(C)C(=O)OCCOC(=O)C(=C)C — result for “peptide depletion span”: -60.3% (cysteine peptide Ac-RFAACAA-COOH; RapidFire MS DPRA; lowest to highest concentration).
O=S(=O)(CC1CS1)c1ccc(Oc2ccccc2)cc1 (centres unmarked): “soluble LRP1 level” over 2 fold (LRP1; ELISA; apoE4-TR mice, soluble brain fraction; intraperitoneal, 25 mg/kg, 45 min before intracranial Aβ, brains collected 10 min later, with: intracranial Aβ(1-42); baseline: vehicle, higher = stronger reduction).
C[C@H](NC(=O)Cc1cc(F)cc(F)c1)C(=O)N[C@H]1N=C(c2ccccc2)c2ccccc2N(C)C1=O — result for “ISF Aβ40 reduction”: about 60% (γ-secretase; inhibitor, microdialysis; J20 hAPP transgenic mice, 24 months, hippocampal interstitial fluid; intraperitoneal, 3 mg/kg, first 3 h; baseline: pre-injection level).
With Clc1ccc(-c2cc(Cl)c(Cl)c(Cl)c2)c(Cl)c1 the inhibition was 36% (aequorin, Aequorea victoria; bioluminescence, inhibitor; 1.0×100 µM, with: coelenterazine; baseline: no inhibitor).
For N#CCCC(Br)(C#N)CBr (centres unmarked), “maximal peptide depletion” read -102% (cysteine peptide Ac-RFAACAA-COOH; DPRA RapidFire-MS/MS; 24 h, pH 7.5, with: 5.0 µM cysteine peptide).
`WKAHNKG` has a recovery yield of 79.8% (adeno-associated virus 2; capsid binding, bind-and-elute chromatography; peptide; peptide ligand resin, MgCl2 elution).
For O=C(c1ccc(F)cc1)N1CCC[C@H](c2nc(-c3ccc(F)cc3)no2)C1, the Emax was 107 ± 5% (mGluR5; calcium fluorescence, positive allosteric modulator; mGluR5-expressing cells; with: glutamate EC20; baseline: maximal glutamate response).
For C[C@@H](CO)CCC[C@@H](C)[C@H]1CC[C@H]2[C@@H]3CC=C4C[C@@H](O)CC[C@]4(C)[C@H]3CC[C@]12C, inhibition read “no inhibition” (mouse carboxylesterase; enzyme activity; J774 cell lysate; concentration not given, with: p-nitrophenyl valerate).
CO/N=C(\C(=O)N[C@@H]1C(=O)N2C(C(=O)[O-])=C(C[N+]3(C)CCCC3)CS[C@H]12)c1csc(N)n1: “acylation rate constant k2/Ks” 630 ± 50 M⁻¹ s⁻¹ (Neisseria gonorrhoeae PBP2 H041; 1 h, pH 8.0, room temperature, with: Bocillin-FL competitor).
O=C1C=CC(=O)C=C1 — result for “maximal peptide depletion”: -119% (cysteine peptide Ac-RFAACAA-COOH; DPRA RapidFire-MS/MS; 24 h, pH 7.5, with: 5.0 µM cysteine peptide).
